Published values of several laboratories.
± marks the error that the study gave.
U2AF2: U2AF2 148-342 (Homo sapiens, UniProt P26368)
Sequence of UniProt P26368 (whole entry, looked up): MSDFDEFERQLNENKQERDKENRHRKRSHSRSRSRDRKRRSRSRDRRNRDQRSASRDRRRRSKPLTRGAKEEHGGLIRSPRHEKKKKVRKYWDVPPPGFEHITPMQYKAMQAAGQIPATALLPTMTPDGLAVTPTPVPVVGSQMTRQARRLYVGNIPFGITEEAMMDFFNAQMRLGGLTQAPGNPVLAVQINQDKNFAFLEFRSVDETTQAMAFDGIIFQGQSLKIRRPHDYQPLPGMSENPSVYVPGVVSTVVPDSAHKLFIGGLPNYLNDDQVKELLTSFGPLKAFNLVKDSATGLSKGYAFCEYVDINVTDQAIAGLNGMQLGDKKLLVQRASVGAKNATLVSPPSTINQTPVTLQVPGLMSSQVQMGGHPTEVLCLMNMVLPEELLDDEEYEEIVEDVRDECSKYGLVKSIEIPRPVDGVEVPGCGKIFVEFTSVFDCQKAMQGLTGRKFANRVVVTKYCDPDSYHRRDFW
T1: TOA1/TOA2 1-286; 1-122 (Saccharomyces cerevisiae); chain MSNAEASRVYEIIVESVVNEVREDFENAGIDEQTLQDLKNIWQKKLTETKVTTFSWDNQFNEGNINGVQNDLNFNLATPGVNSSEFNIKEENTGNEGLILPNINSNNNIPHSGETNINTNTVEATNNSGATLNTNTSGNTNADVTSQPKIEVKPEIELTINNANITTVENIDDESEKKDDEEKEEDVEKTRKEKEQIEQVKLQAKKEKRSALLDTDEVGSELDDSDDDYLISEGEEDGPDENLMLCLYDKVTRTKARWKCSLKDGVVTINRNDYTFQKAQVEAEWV; chain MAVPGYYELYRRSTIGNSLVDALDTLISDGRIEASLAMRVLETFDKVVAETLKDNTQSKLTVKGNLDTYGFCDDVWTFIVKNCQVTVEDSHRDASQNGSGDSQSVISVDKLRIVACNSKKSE
B1: designed binder (Homo sapiens); chain MASAARLTMMWEEVTCPICLDPFVEPVSIECGHSFCQECISQVGKGGGSVCPVCRQRFLLKNLRPNRQLANMVNNLKEISQEAREGTQGERCAVHGERLHLFCEKDGKALCWVCAQSRKHRDHAMVPLEEAAQEYQEKLQVALGELRRKQELAEKLEVEIAIKRADWKKTVETQKSRIHAEFVQQKNFLVEEEQRQLQELEKDEREQLRILGEKEAKLAQQSQALQELISELDRRCHSSALELLQEVIIVLERSESWNLKDLDITSPELRSVCHVPGLKKMLRTCAGGGGSGGGGSGGGGSRLDAPSTIAVYRVSYTYAIIYWYSPLAEIDGFELTYGIKDVPGDRTTIKLTEDDGHYVIRHLKPDTEYEVSLISRRGDMSSNPAKITFKTGL
B2: ACVR1 21-123 (Homo sapiens, UniProt Q04771); sequence looked up; chain MEDEKPKVNPKLYMCVCEGLSCGNEDHCEGQQCFSSLSINDGFHVYQKGCFQVYEQGKMTCKTPPSPGQAVECCQGDWCNRNITAQLPTKGKSFPGTQNFHLE
B3: UBQLN2 450-624 S624C (UniProt Q9UHD9); Alexa Fluor 488 at C624; sequence looked up; chain RAMQALMQIQQGLQTLATEAPGLIPSFTPGVGVGVLGTAIGPVGPVTPIGPIGPIVPFTPIGPIGPIGPTGPAAPPGSTGSGGPTGPTVSSAAPSETTSPTSESGPNQQFIQQMVQALAGANAPQLPNPEVRFQQQLEQLNAMGFLNREANLQALIATGGDINAAIERLLGSQPC
B4: IFIT1 (Homo sapiens, UniProt P09914); chain MSTNGDDHQVKDSLEQLRCHFTWELSIDDDEMPDLENRVLDQIEFLDTKYSVGIHNLLAYVKHLKGQNEEALKSLKEAENLMQEEHDNQANVRSLVTWGNFAWMYYHMGRLAEAQTYLDKVENICKKLSNPFRYRMECPEIDCEEGWALLKCGGKNYERAKACFEKVLEVDPENPESSAGYAISAYRLDGFKLATKNHKPFSLLPLRQAVRLNPDNGYIKVLLALKLQDEGQEAEGEKYIEEALANMSSQTYVFRYAAKFYRRKGSVDKALELLKKALQETPTSVLLHHQIGLCYKAQMIQIKEATKGQPRGQNREKLDKMIRSAIFHFESAVEKKPTFEVAHLDLARMYIEAGNHRKAEENFQKLLCMKPVVEETMQDIHFHYGRFQEFQKKSDVNAIIHYLKAIKIEQASLTRDKSINSLKKLVLRKLRRKALDLESLSLLGFVYKLEGNMNEALEYYERALRLAADFENSVRQGP
B5: spdl-1 C-terminal 362-479 (Caenorhabditis elegans, UniProt Q17695); sequence looked up; chain PVVNKDFEHPLLAAPLKTLNNGRPSFFIKPKNVEPMPQLGHSLSSIAVTPQKPAAKFTTRSSIKDDTSEWAERRMKAQAEKKLATPTPRYNYIKLSEPVPKFKPAVLQMPSTSETKEN
B6: human Nup88; sequence looked up; chain AAAEGPVGDGELWQTWLPNHVVFLRLREGLKNQSPTEAEKPASSSLPSSPPPQLLTRNVVFGLGGELFLWDGEDSSFLVVRLRGPSGGGEEPALSQYQRLLCINPPLFEIYQVLLSPTQHHVALIGIKGLMVLELPKRWGKNSEFEGGKSTVNCSTTPVAERFFTSSTSLTLKHAAWYPSEILDPHVVLLTSDNVIRIYSLREPQTPTNVIILSEAEEESLVLNKGRAYTASLGETAVAFDFGPLAAVPKTLFGQNGKDEVVAYPLYILYENGETFLTYISLLHSPGNIGKLLGPLPMHPAAEDNYGYDACAVLCLPCVPNILVIATESGMLYHCVVLEGEEEDDHTSEKSWDSRIDLIPSLYVFECVELELALKLASGEDDPFDSDFSCPVKLHRDPKCPSRYHCTHEAGVHSVGLTWIHKLHKFLGSDEEDKDSLQELSTEQKCFVEHILCTKPLPCRQPAPIRGFWIVPDILGPTMICITSTYECLIWPLLSTVHPASPPLLCTREDVEVAESPLRVLAETPDSFEKHIRSILQRSVANPAFLKASEKDIAPPPEECLQLLSRATQVFREQYILKQDLAKEEIQRRVKLLCDQKKKQLEDLSYCREERKSLREMAERLADKYEEAKEKQEDIMNRMKKLLHSFHSELPVLSDSERDMKKELQLIPDQLRHLGNAIKQVTMKKDYQQQKMEKVLSLPKPTIILSAYQRKCIQSILKEEGEHIREMVKQINDIRNHVNF
B7: IL18 37-193 C74S/C104S/C112S/A162C/C163S/I185C (Homo sapiens, UniProt Q14116); chain YFGKLESKLSVIRNLNDQVLFIDQGNRPLFEDMTDSDSRDNAPRTIFIISMYKDSQPRGMAVTISVKSEKISTLSSENKIISFKEMNPPDNIKDTKSDIIFFQRSVPGHDNKMQFESSSYEGYFLCSEKERDLFKLILKKEDELGDRSCMFTVQNED
B8: FRS2 PTB domain (Homo sapiens, UniProt Q8WU20); chain VPDNHRNKFKVINVDDDGNELGSGIMELTDTELILYTRKRDSVKWHYLCLRRYGYDSNLFSFESGRRCQTGQGIFAFKCARAEELFNMLQEIMQNNSINVVEE
B9: NFKBIA 67-287 (Homo sapiens, UniProt P25963); sequence looked up; chain KQQLTEDGDSFLHLAIIHEEKALTMEVIRQVKGDLAFLNFQNNLQQTPLHLAVITNQPEIAEALLGAGCDPELRDFRGNTPLHLACEQGCLASVGVLTQSCTTPHLHSILKATNYNGHTCLHLASIHGYLGIVELLVSLGADVNAQEPCNGRTALHLAVDLQNPDLVSLLLKCGADVNRVTYQGYSPYQLTWGRPSTRIQQQLGQLTLENLQMLPESEDEE
B10: SRS2 1107-1174 L1156A (Saccharomyces cerevisiae, UniProt P12954); N-terminal cysteine BODIPY-FL; chain CHNPDDTTVDNRPIISNAKFLADAAMKKTQKFSKKVKNEPASSQMDIFSQASRAKKKSKLNNGEIIVID
B11: NOTCH4 276-511 (Homo sapiens, UniProt Q99466); sequence looked up; chain NPDNCVSHQCQNGGTCQDGLDTYTCLCPETWTGWDCSEDVDECETQGPPHCRNGGTCQNSAGSFHCVCVSGWGGTSCEENLDDCIAATCAPGSTCIDRVGSFSCLCPPGRTGLLCHLEDMCLSQPCHGDAQCSTNPLTGSTLCLCQPGYSGPTCHQDLDECLMAQQGPSPCEHGGSCLNTPGSFNCLCPPGYTGSRCEADHNECLSQPCHPGSTCLDLLATFHCLCPPGLEGQLCE
B12: Cacng2 203-323 (Mus musculus, UniProt O88602); chain DRHKQLRATARATDYLQASAITRIPSYRYRYQRRSRSSSRSTEPSHSRDASPVGVKGFNTLPSTEISMYTLSRDPLKAATTPTATYNSDRDNSFLQVHNCIQKDSKDSLHANTANRRTTPV
B13: human RAB8A; sequence looked up; chain MAKTYDYLFKLLLIGDSGVGKTCVLFRFSEDAFNSTFISTIGIDFKIRTIELDGKRIKLQIWDTAGQERFRTITTAYYRGAMGIMLVYDITNEKSFDNIRNWIRNIEEHASADVEKMILGNKCDVNDKRQVSKERGEKLALDYGIKFMETSAKANINVENAFFTLARDIKAKMDKKLEGNSPQGSNQGVKITPDQQKRSSFFRC
Sequence of UniProt Q06671 (whole entry, looked up): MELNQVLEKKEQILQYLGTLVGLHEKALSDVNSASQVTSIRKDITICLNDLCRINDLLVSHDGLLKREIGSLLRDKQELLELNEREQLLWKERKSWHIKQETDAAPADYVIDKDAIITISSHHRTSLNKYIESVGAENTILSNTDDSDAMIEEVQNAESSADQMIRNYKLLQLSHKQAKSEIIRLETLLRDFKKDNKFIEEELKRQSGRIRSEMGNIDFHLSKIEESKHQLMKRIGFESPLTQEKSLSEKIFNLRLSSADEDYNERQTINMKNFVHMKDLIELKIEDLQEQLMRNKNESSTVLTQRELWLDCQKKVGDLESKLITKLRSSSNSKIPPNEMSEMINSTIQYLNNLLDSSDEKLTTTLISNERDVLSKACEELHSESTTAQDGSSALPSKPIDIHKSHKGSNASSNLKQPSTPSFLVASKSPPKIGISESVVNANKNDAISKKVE
Sequence of UniProt P22004 (whole entry, looked up): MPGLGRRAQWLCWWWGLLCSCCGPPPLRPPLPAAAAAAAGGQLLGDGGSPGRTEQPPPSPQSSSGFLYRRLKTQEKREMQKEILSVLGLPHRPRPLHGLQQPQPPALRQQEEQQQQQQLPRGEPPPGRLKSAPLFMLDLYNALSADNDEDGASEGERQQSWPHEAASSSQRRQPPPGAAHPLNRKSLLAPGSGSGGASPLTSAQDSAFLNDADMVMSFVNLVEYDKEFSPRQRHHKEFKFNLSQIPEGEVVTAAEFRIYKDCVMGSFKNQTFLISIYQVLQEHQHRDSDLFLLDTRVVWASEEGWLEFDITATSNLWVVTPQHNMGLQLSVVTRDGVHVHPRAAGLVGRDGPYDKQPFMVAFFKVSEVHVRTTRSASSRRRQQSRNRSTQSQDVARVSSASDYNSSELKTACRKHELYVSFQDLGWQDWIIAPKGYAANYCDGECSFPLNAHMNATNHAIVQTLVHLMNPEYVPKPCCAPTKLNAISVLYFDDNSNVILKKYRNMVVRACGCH
Sequence of UniProt P11362 (whole entry, looked up): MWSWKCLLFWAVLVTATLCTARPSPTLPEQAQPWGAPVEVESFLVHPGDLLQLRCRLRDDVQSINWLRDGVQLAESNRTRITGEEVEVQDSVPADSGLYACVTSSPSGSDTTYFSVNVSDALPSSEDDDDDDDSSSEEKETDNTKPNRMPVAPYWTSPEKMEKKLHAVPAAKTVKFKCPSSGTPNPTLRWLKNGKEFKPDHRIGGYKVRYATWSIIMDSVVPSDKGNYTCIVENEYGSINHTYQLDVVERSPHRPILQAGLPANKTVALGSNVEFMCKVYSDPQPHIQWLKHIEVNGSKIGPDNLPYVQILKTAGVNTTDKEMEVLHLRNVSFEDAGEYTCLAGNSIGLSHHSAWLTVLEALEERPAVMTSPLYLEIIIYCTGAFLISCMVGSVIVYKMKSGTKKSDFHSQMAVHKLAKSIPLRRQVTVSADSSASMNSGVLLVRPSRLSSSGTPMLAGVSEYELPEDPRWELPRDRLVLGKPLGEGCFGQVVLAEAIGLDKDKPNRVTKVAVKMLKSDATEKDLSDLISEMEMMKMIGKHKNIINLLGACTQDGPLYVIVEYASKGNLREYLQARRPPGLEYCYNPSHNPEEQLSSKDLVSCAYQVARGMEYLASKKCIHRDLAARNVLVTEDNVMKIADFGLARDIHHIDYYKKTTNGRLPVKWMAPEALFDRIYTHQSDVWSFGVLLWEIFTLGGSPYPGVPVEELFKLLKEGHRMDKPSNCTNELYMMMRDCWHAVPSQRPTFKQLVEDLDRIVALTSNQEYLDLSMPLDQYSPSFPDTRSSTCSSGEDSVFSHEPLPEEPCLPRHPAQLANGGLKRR
Sequence of UniProt Q20849 (whole entry, looked up): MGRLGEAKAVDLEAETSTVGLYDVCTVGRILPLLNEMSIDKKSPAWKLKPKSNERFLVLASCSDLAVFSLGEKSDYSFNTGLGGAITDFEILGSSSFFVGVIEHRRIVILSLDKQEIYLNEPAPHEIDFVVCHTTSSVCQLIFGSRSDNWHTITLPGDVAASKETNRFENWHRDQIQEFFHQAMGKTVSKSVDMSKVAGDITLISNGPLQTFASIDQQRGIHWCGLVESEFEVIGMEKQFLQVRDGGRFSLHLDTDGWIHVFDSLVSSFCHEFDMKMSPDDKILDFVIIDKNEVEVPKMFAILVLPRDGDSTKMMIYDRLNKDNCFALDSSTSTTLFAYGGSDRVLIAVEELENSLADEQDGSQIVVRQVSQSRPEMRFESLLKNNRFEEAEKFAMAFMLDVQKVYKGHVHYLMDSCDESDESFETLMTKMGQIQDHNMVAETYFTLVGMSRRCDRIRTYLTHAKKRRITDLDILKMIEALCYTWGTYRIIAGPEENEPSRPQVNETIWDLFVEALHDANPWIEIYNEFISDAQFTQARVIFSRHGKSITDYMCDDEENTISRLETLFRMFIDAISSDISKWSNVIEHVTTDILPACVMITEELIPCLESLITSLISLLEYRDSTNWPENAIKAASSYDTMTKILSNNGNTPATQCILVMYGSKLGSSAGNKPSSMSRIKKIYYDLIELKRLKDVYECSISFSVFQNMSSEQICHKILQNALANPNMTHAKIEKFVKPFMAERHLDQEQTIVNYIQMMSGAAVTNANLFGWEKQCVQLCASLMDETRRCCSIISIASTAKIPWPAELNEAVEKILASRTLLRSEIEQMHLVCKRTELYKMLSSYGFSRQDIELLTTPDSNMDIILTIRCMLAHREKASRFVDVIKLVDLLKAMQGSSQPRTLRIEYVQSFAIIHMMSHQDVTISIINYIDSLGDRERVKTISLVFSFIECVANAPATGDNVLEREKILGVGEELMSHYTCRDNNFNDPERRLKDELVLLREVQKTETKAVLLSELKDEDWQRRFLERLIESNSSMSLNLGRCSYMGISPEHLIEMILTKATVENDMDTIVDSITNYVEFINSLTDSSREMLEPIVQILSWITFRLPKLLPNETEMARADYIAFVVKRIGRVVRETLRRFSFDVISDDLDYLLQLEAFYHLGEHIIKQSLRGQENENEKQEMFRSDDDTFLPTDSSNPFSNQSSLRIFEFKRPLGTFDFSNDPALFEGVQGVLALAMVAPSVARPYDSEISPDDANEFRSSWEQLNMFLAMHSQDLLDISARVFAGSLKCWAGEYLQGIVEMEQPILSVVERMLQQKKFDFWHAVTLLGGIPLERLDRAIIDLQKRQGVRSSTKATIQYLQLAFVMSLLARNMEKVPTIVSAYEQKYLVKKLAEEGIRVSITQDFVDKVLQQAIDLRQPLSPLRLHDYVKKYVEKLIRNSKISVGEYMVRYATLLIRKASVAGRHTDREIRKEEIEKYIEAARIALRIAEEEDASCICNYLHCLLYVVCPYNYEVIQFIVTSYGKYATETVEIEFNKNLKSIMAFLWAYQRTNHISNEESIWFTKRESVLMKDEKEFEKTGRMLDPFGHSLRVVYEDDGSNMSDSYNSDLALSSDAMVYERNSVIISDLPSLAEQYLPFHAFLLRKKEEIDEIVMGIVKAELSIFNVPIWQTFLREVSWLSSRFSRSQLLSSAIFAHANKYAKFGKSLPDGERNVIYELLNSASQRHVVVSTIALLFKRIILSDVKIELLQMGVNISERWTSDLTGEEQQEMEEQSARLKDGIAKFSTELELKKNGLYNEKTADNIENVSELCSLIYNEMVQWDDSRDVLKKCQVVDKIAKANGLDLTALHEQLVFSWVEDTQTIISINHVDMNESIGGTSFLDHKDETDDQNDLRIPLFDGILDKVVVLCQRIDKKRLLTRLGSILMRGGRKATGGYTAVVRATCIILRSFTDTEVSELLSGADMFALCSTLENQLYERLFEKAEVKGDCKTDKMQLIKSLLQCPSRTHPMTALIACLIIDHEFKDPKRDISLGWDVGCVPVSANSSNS
Sequence of UniProt P00736 (whole entry, looked up): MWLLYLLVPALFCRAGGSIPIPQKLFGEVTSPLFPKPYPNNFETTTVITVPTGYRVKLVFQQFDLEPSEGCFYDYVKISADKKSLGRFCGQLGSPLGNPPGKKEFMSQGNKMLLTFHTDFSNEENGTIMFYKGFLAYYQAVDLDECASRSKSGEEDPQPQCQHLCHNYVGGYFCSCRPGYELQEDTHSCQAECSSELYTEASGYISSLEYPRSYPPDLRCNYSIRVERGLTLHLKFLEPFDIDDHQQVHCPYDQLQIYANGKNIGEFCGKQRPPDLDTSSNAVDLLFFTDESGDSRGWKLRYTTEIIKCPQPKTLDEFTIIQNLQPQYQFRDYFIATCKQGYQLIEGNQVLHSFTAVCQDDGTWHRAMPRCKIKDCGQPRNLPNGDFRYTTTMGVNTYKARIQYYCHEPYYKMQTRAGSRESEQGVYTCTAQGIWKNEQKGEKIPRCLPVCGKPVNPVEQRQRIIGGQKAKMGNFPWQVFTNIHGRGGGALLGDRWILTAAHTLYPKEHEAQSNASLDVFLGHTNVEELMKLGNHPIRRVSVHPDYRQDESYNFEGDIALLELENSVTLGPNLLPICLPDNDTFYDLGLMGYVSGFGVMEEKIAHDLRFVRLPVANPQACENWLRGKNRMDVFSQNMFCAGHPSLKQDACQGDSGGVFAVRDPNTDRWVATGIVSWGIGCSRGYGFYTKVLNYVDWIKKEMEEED

| Molecule | tested on | test | system | setting | scale | endpoint | result |
| --- | --- | --- | --- | --- | --- | --- | --- |
| B1 (designed binder) | MALT1 (Homo sapiens, UniProt Q9UDY8) | BLI | designed binder |  |  | Kd | 0.619 ± 0.0091 µM |
| B2 (ACVR1 21-123) | BMP6 mature (UniProt P22004) | SPR | Fc fusion |  |  | Kd | 0.00395 µM |
| B3 (UBQLN2 450-624 S624C) | ubiquitin M1-linked tetramer (UniProt P0CG48) | fluorescence polarisation |  |  |  | Kd | 5.11 µM |
| AUAUUGUUU (ssRNA) | U2AF2 | sequencing of bound RNA | RNA | motif only |  | Kd | 2.15 µM |
| B4 (IFIT1) | IFIT3 (UniProt O14879) | MST |  |  |  | Kd | 0.0433 ± 0.0096 µM |
| trastuzumab IgG1 (Homo sapiens) | FCGR1A (Homo sapiens, UniProt P12314) | SPR |  |  |  | Kd | 0.00089 µM |
| SVCETGSNTEE (KANK1 peptide) | DYNLL1 (Homo sapiens, UniProt P63167) | ITC | peptide | 25 °C |  | Kd | > 60 µM |
| B5 (spdl-1 C-terminal 362-479) | rod-1 2-418 (Caenorhabditis elegans, UniProt Q20849) | MST |  |  |  | Kd | 15.2 ± 3.1 µM |
| B6 (human Nup88) | U2OS CYB5R4 knock-out | phosphoproteomics |  | concentration not given, added: cisplatin | reference: untreated CYB5R4 knock-out U2OS | phosphorylation log2 fold change | 6.91 |
| B7 | IL18BP (Homo sapiens, UniProt O95998) | SPR |  |  |  | Kd | 6.5e-06 µM |
| B8 (FRS2 PTB domain) | FGFR1 (Homo sapiens, UniProt P11362) | ITC |  |  |  | Kd | 9.9 µM |
| TGGCACTCGGGAGGCAGCGGCGACTTTGGGGAAAGTCAAGTCAATCGGTCC (dsDNA; 5'-amino-C6 primer) | SPT15 full length assumed (Saccharomyces cerevisiae, UniProt P13393) | array | double-stranded DNA, one strand shown | TBP alone |  | Kd | 0.0129 ± 0.00138 µM |
| KLLMIIHDRREFAKFEKEKMNAKWDTQENPIYKSPINNFKNPNYGRKAGL (ITGB1 752-801 (Homo sapiens, UniProt P05556-5); sequence looked up) | Tln2 312-408 T358N (Mus musculus, UniProt Q71LX4) | NMR titration |  |  |  | Kd | 50 µM |
| PARRSEELVAEAHNLCTLLENAIQDTVREQDQSFTALDWSWLQTE (IKBKB 701-745 K703R/K704R (UniProt O14920); N-terminal FITC; sequence looked up) | NEMO 44-113 (Homo sapiens) | fluorescence polarisation | peptide |  |  | Kd | 7.28 µM |
| FFFTYK (designed peptide; FITC label) | NHERF2 142-254 (Homo sapiens, UniProt Q15599-1) | fluorescence intensity change, fluorescence titration | peptide |  |  | Kd | > 1000 µM |
| B9 (NFKBIA 67-287) | RelA/NFKB1 190-321 | ITC |  |  |  | Kd | < 0.001 µM |
| MERDEYQLPNSHGKNTFLSRIFGLQSDEVNPSLNSQEMSNFPLPDIER (ATG9 1-48 (Saccharomyces cerevisiae, UniProt Q12142); sequence looked up) | ATG23 full-length, dimer (Saccharomyces cerevisiae, UniProt Q06671) | BLI |  |  |  | Kd | 1.23 µM |
| Notch ankyrin domain T83A/R107A (Drosophila) | dx (Drosophila melanogaster, UniProt Q23985) | AUC |  |  |  | Kd | 17.6 µM |
| B10 (SRS2 1107-1174 L1156A) | POL30 1-258 K127G (Saccharomyces cerevisiae, UniProt P15873) | fluorescence polarisation |  | apparent |  | Kd | 12.4 µM |
| MERDEYQLPNSHGKNTFLSRIFGLQSDEVNPSLNSQEMSNFPLPDIER (ATG9 1-48 (Saccharomyces cerevisiae, UniProt Q12142); sequence looked up) | Atg23 full-length, dimer (yeast, UniProt Q06671) | BLI |  |  |  | Kd | 1.19 µM |
| B11 (NOTCH4 276-511) | DLL4 27-400 G28S/F107L/I143F/H194Y/L206P/N257P/T271L/F280Y/S301R/Q305P (Homo sapiens, UniProt Q9NR61) | SPR |  |  |  | Kd | 0.024 µM |
| CDH23 fragment (Mus musculus) (sequence not shown) | PCDH15 fragment (Mus musculus) | SPR |  |  |  | Kd | 3.6 ± 0.9 µM |
| EAADQEEDQDDFVYPGAD (upa1 237-254 (Ustilago maydis, UniProt A0A0D1E015); sequence looked up) | rrm4 679-792 (Ustilago maydis, UniProt A0A0D1DWZ5) | ITC | peptide |  |  | Kd | 15.7 µM |
| MBL-A mature, hydroxylysine, hydroxyproline in collagen (Rattus norvegicus, UniProt P19999) | C1R (Homo sapiens, UniProt P00736) | SPR |  | added: CaCl2 140 mM |  | Kd | 0.274 µM |
| CCGTAGTGCGTCGCCTCCGTTGCCGGGGAAACGACTCAAGTCAATCGGTCC (dsDNA; 5'-amino-C6 primer) | T1, TOA1/TOA2 1-286; 1-122 (Saccharomyces cerevisiae) | array | double-stranded DNA, one strand shown | TFIIA alone |  | Kd | 0.0892 ± 0.0317 µM |
| B12 (Cacng2 203-323) | DLG4 fragment, pS142 (Homo sapiens) | ITC |  |  |  | Kd | 1.2 µM |
| UUUCAGAUU (ssRNA) | U2AF2 | sequencing of bound RNA | RNA | motif only |  | Kd | 15.3 µM |
| B13 (human RAB8A) | CYB5R4 knockout human cells | PP6 interaction, 3xFLAG-PP6C IP-MS |  | concentration not given | reference: CYB5R4 KO over parental | log2 fold change | -0.11 |
| GRIN2A fragment S1459A (sequence not shown) | SNX27 fragment (Rattus norvegicus) | ITC |  |  |  | Kd | 49.9 µM |
